{"data": "Measurements pooled from the literature", "note": "Numbered parts are unrelated; each lists some results of a single study. “And” joins repeats or separate records; there may be more than shown.", "UniProt Q16816, sequence (whole entry, looked up)": "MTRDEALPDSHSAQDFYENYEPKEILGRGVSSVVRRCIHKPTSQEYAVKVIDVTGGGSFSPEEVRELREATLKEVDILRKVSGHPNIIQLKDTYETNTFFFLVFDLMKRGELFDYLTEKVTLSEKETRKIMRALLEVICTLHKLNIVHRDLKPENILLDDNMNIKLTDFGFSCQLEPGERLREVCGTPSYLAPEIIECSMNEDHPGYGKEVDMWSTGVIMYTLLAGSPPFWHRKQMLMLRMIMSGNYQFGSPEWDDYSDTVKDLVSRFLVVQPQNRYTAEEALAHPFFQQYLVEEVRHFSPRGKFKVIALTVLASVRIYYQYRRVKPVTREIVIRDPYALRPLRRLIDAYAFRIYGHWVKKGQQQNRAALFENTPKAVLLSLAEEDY", "UniProt Q9H4A3, sequence (whole entry, looked up)": "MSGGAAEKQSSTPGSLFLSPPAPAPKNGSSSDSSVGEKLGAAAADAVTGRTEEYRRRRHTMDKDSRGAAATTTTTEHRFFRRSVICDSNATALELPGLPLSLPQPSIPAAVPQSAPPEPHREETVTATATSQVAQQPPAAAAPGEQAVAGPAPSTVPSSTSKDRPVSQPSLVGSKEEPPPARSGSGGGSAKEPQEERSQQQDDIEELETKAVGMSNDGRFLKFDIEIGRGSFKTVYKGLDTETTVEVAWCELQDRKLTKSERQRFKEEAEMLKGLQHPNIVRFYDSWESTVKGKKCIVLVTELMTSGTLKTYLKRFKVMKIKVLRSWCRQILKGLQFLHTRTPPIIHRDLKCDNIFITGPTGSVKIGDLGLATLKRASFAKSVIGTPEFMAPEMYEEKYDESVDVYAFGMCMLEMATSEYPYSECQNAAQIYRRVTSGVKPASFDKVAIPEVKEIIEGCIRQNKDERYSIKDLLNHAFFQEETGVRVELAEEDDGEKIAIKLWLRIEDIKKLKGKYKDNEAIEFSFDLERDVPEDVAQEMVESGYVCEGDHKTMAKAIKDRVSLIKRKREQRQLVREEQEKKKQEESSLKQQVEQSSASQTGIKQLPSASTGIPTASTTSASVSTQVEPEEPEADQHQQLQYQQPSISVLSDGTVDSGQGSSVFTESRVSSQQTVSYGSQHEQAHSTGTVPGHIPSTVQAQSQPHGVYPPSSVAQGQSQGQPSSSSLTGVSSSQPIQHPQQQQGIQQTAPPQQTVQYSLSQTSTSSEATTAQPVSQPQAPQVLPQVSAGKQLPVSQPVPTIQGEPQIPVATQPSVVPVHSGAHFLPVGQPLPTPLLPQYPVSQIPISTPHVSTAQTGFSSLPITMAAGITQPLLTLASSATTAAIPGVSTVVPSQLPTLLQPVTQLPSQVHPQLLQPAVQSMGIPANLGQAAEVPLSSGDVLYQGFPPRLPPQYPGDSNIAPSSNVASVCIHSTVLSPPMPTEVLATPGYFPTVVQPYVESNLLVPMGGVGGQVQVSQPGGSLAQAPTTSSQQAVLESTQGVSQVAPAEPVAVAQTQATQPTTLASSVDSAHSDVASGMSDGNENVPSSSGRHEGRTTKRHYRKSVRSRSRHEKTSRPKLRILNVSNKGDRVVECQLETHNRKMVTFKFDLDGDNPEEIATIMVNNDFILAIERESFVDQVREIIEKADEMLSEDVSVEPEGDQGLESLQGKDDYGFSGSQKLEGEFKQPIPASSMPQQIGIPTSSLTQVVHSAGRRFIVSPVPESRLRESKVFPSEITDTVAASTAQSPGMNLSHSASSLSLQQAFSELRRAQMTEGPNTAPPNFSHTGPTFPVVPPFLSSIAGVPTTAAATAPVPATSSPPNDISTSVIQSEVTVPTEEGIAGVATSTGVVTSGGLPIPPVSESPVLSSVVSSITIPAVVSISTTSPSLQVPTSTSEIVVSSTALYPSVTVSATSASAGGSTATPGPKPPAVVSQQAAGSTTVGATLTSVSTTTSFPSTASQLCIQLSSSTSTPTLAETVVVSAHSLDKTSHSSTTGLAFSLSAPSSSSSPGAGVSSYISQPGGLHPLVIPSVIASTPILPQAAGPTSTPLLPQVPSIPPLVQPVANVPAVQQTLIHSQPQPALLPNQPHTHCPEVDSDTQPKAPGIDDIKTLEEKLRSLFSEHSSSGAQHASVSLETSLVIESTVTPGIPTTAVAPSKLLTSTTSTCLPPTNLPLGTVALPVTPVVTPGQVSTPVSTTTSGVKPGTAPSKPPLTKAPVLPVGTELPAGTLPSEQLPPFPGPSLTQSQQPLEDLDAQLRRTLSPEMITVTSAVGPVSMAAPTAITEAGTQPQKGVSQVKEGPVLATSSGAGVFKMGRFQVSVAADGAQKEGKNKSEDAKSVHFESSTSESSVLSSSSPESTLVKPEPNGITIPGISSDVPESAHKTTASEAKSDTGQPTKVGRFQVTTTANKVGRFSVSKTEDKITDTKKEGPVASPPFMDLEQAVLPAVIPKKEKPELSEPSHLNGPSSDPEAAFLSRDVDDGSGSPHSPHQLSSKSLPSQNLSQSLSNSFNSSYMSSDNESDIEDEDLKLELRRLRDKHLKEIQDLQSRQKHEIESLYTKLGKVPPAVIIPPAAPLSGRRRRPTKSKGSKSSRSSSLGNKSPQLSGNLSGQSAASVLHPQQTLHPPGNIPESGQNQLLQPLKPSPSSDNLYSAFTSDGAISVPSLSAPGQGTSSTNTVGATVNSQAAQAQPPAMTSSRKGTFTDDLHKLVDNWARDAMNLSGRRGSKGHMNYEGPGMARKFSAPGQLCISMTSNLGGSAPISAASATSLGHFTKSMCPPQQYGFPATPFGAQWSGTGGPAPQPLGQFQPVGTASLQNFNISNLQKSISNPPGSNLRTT", "UniProt Q9NRH2, sequence (whole entry, looked up)": "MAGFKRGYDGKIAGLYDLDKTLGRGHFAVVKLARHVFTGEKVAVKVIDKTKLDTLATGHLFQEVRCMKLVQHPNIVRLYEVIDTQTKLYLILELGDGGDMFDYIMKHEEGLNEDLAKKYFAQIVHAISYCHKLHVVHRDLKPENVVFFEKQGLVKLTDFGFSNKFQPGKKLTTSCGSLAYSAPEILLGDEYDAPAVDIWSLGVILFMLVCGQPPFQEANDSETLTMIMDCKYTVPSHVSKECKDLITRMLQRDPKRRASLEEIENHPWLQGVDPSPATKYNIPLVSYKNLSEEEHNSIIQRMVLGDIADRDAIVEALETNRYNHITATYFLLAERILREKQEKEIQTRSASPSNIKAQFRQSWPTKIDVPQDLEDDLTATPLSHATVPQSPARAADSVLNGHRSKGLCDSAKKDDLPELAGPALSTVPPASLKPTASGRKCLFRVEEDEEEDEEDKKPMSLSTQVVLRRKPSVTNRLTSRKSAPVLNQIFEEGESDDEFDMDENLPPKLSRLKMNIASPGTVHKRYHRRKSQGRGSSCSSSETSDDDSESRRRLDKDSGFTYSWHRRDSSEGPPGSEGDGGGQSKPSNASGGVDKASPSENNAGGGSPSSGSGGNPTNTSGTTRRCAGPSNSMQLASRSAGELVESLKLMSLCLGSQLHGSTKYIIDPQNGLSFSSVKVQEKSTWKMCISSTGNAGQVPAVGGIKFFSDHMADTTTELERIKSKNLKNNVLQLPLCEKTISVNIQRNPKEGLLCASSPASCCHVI", "UniProt P00519, sequence (whole entry, unmodified, looked up)": "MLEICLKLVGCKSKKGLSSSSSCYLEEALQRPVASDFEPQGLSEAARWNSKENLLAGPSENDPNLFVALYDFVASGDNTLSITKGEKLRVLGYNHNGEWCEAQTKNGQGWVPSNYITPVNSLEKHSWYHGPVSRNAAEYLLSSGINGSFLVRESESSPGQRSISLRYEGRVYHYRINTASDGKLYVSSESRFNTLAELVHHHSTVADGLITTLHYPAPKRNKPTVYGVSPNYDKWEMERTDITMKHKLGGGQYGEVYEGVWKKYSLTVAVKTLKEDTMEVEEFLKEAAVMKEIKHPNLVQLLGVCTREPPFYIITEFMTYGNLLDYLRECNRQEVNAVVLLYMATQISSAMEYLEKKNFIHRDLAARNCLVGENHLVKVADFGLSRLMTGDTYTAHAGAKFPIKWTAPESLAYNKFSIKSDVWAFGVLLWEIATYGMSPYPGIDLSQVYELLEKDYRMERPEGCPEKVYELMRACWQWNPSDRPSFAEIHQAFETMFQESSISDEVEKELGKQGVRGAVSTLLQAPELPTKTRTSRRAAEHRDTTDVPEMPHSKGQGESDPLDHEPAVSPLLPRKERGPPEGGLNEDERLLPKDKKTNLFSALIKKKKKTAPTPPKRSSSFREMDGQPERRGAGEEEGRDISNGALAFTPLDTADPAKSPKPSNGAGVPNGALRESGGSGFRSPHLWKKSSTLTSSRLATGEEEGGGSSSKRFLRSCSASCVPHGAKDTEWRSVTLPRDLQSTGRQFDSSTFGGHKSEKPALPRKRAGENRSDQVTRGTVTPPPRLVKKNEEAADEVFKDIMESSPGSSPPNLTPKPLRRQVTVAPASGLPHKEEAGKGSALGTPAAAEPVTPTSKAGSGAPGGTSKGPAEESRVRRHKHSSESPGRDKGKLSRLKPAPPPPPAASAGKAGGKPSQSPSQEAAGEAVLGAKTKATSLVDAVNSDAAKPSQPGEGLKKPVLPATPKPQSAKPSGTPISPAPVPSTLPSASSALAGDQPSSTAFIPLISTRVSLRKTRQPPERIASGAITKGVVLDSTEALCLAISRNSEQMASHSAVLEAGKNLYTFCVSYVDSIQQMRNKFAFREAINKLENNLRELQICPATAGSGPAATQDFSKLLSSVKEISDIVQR"}
{"data": "Set 1", "cell line": "Huh-7", "tested at": "10 µM", "time": "24 h"}
{"SMILES": "COC(=O)[C@@H]1[C@H]2C[C@H]3c4[nH]c5ccccc5c4CCN3C[C@@H]2CC[C@@H]1O", "viability": "98.5%"}
{"SMILES": "NC12CC3CC(CC(C3)C1)C2", "viability": "98.3%"}
{"SMILES": "O=C(O)c1cn(-c2ccc(F)cc2)c2cc(N3CCNCC3)c(F)cc2c1=O", "viability": "92.8%"}
{"SMILES": "COc1c(C)c2c(c(O)c1C/C=C(\\C)CCC(=O)O)C(=O)OC2", "viability": "61.6%"}
{"SMILES": "COc1cc([C@@H]2c3cc4c(cc3[C@@H](O[C@@H]3O[C@@H]5CO[C@@H](C)O[C@H]5[C@H](O)[C@H]3O)[C@H]3COC(=O)[C@H]23)OCO4)cc(OC)c1O", "viability": "51.9%"}
{"SMILES": "O=C(O)CCCC[C@@H]1SC[C@@H]2NC(=O)N[C@@H]21", "viability": "99.7%"}
{"SMILES": "CCN(CC)C(=O)N1CCN(C)CC1", "viability": "101%"}
{"SMILES": "Nc1ncnc2c1ncn2[C@@H]1O[C@H](COP(=O)(O)O)[C@@H](O)[C@H]1O", "viability": "99.3%"}
{"SMILES": "COc1cc(NC(C)CCCN)c2ncccc2c1 (stereo not shown)", "viability": "94.8%"}
{"SMILES": "CC(C)(CO)C(O)C(=O)NCCCO (stereo not shown)", "viability": "106%"}
{"SMILES": "CC(C(=O)O)c1ccc2c(c1)[nH]c1ccc(Cl)cc12 (stereo not shown)", "viability": "94.9%"}
{"SMILES": "O=C(OCc1ccccc1)c1ccccc1", "viability": "102%"}
{"SMILES": "CS(=O)(=O)c1ccc(C2=C(c3ccccc3)C(=O)OC2)cc1", "viability": "96.9%"}
{"SMILES": "COC(=O)Nc1nc2ccc(Sc3ccccc3)cc2[nH]1", "viability": "88.2%"}
{"data": "Set 2", "SMILES": "Cn1nc(C(=O)NCc2ccc(C(=O)O)cc2)cc1-c1ccc2[nH]ccc2c1", "tested at": "0.1 µM"}
{"target": "MAP3K20 (Homo sapiens, UniProt Q9NYL2)", "test": "cell-free assay, competition with immobilised ligand", "remaining binding": "80%"}
{"target": "MAP3K13 (Homo sapiens, UniProt O43283)", "test": "cell-free assay, competition with immobilised ligand", "remaining binding": "78%"}
{"target": "PRKAA1 (Homo sapiens, UniProt Q13131)", "test": "cell-free assay, competition with immobilised ligand", "remaining binding": "81%"}
{"target": "NUAK1 (Homo sapiens, UniProt O60285)", "test": "cell-free assay, competition with immobilised ligand", "remaining binding": "70%"}
{"target": "LTK (Homo sapiens, UniProt P29376)", "test": "cell-free assay, competition with immobilised ligand", "remaining binding": "81%"}
{"target": "MATK (Homo sapiens, UniProt P42679)", "test": "cell-free assay, competition with immobilised ligand", "remaining binding": "86%"}
{"target": "ERBB4 (Homo sapiens, UniProt Q15303)", "test": "cell-free assay, competition with immobilised ligand", "remaining binding": "98%"}
{"target": "PTK2B (Homo sapiens, UniProt Q14289)", "test": "cell-free assay, competition with immobilised ligand", "remaining binding": "96%"}
{"target": "COQ8B (Homo sapiens, UniProt Q96D53)", "test": "cell-free assay, competition with immobilised ligand", "remaining binding": "100%"}
{"target": "DSTYK (Homo sapiens, UniProt Q6XUX3)", "test": "cell-free assay, competition with immobilised ligand", "remaining binding": "96%"}
{"target": "MAP4K5 (Homo sapiens, UniProt Q9Y4K4)", "test": "cell-free assay, competition with immobilised ligand", "remaining binding": "96%"}
{"target": "SNRK (Homo sapiens, UniProt Q9NRH2)", "test": "cell-free assay, competition with immobilised ligand", "remaining binding": "92%"}
{"target": "CDC42BPG (Homo sapiens, UniProt Q6DT37)", "test": "competition binding", "remaining binding": "100%"}
{"target": "PRKACB (Homo sapiens, UniProt P22694)", "test": "cell-free assay, competition with immobilised ligand", "remaining binding": "98%"}
{"target": "Tyrosine-protein kinase ABL1, phosphorylated (ABL1, Homo sapiens, UniProt P00519, F317L)", "test": "cell-free assay, competition with immobilised ligand", "remaining binding": "62%"}
{"target": "BMPR2 (Homo sapiens, UniProt Q13873)", "test": "cell-free assay, competition with immobilised ligand", "remaining binding": "83%"}
{"target": "EGFR (Homo sapiens, UniProt P00533, del746-750)", "test": "cell-free assay, competition with immobilised ligand", "remaining binding": "100%"}
{"target": "PHKG1 (Homo sapiens, UniProt Q16816)", "test": "cell-free assay, competition with immobilised ligand", "remaining binding": "100%"}
{"target": "NTRK1 (Homo sapiens, UniProt P04629)", "test": "cell-free assay, competition with immobilised ligand", "remaining binding": "74%"}
{"target": "FRK (Homo sapiens, UniProt P42685)", "test": "cell-free assay, competition with immobilised ligand", "remaining binding": "100%"}
{"target": "BMPR1A (Homo sapiens, UniProt P36894)", "test": "binding, competition with immobilised ligand", "remaining binding": "94%"}
{"target": "EPHB2 (Homo sapiens, UniProt P29323)", "test": "cell-free assay, competition with immobilised ligand", "remaining binding": "100%"}
{"target": "WNK1 (Homo sapiens, UniProt Q9H4A3)", "test": "cell-free assay, competition with immobilised ligand", "remaining binding": "100%"}
{"target": "SGK1 (Homo sapiens, UniProt O00141)", "test": "cell-free assay, competition with immobilised ligand", "remaining binding": "88%"}
{"target": "AKT2 (Homo sapiens, UniProt P31751)", "test": "cell-free assay, competition with immobilised ligand", "remaining binding": "96%"}
{"data": "Set 3", "cell line": "mouse MPNST tumor cells", "method": "high-content immunofluorescence imaging", "refers to": "nuclear SOX9", "tested at": "10 µM", "time": "12 h", "notes": "mean of 2 replicates", "relative to": "DMSO control", "reading": "higher = more nuclear SOX9"}
{"Structure (SMILES)": "CCCCNc1ncc(C(=O)NCc2ccc(-n3ccnc3)cc2)c(NC2CCC(O)CC2)n1 (stereo not shown)", "nuclear SOX9 intensity": "88.6 % of DMSO"}
{"Structure (SMILES)": "CCN(CCCc1ccccc1)CCCc1ccccc1", "nuclear SOX9 intensity": "210 % of DMSO"}
{"Structure (SMILES)": "COc1ccc2cc(CCC(C)=O)ccc2c1", "nuclear SOX9 intensity": "98.9 % of DMSO"}
{"Structure (SMILES)": "COc1ccc(OCC2c3cc(OC)c(OC)cc3CCN2C(=O)c2cccc(Cl)c2)cc1 (stereo not shown)", "nuclear SOX9 intensity": "118 % of DMSO"}
{"Structure (SMILES)": "CN1CCN2c3ncccc3Cc3ccccc3C2C1 (stereo not shown)", "nuclear SOX9 intensity": "103 % of DMSO and 110 % of DMSO"}
{"Structure (SMILES)": "COc1ccc(-c2ccc(=N)n(CCCC(=O)O)n2)cc1", "nuclear SOX9 intensity": "94.3 % of DMSO"}
{"Structure (SMILES)": "O=[N+]([O-])c1cccc2cn[nH]c12", "nuclear SOX9 intensity": "91.6 % of DMSO"}
{"Structure (SMILES)": "CCCN1CCN(c2ccc(C(=O)NC3(C(=O)NCC#N)CCCCC3)cc2)CC1", "nuclear SOX9 intensity": "102 % of DMSO"}
{"Structure (SMILES)": "CN(C)CCOC(c1ccc(Cl)cc1)c1ccccn1 (stereo not shown)", "nuclear SOX9 intensity": "98.2 % of DMSO"}
{"Structure (SMILES)": "C[C@]12C[C@H](O)[C@H]3[C@@H](CCC4=CC(=O)CC[C@@]43C)[C@@H]1CC[C@@H]2C(=O)CO", "nuclear SOX9 intensity": "81.6 % of DMSO and 85.5 % of DMSO"}
{"Structure (SMILES)": "CC1(C)S[C@@H]2[C@H](NC(=O)[C@H](NC(=O)N3CCNC3=O)c3ccccc3)C(=O)N2[C@H]1C(=O)O", "nuclear SOX9 intensity": "93.4 % of DMSO"}
{"Structure (SMILES)": "O=C(NO)c1cccc(C(=O)NCCc2ccccc2)c1", "nuclear SOX9 intensity": "93.7 % of DMSO"}
{"Structure (SMILES)": "N#CC(CCCN1CCN(/N=C/c2cccnc2)CC1)(c1ccccc1)c1ccccc1", "nuclear SOX9 intensity": "98.4 % of DMSO"}
{"Structure (SMILES)": "Clc1cc2cc(c1)-c1cnn3ccc(nc13)NCCOCCO2", "nuclear SOX9 intensity": "90.6 % of DMSO"}
{"Structure (SMILES)": "O=C(Nc1ccc(CN2CCOCC2)cc1)c1ccc(-c2cccc(Cl)c2)o1", "nuclear SOX9 intensity": "191 % of DMSO"}
{"Structure (SMILES)": "CN(C)c1cccc(Oc2cnc(Nc3cccc(O)c3)nc2)c1", "nuclear SOX9 intensity": "124 % of DMSO"}
{"Structure (SMILES)": "COC(=O)C(N)Cc1ccc(Cl)cc1 (stereo not shown)", "nuclear SOX9 intensity": "93.5 % of DMSO"}
{"Structure (SMILES)": "Nc1nc(N)c2nc(-c3ccccc3)c(N)nc2n1", "nuclear SOX9 intensity": "129 % of DMSO"}
{"data": "Set 4", "target": "Mitogen-activated protein kinase 8 (MAPK8, Homo sapiens, UniProt P45983)", "read-out": "enzyme activity", "mode": "inhibitor", "tested at": "0.5 µM", "relative to": "control", "UniProt P45983, sequence (whole entry, looked up)": "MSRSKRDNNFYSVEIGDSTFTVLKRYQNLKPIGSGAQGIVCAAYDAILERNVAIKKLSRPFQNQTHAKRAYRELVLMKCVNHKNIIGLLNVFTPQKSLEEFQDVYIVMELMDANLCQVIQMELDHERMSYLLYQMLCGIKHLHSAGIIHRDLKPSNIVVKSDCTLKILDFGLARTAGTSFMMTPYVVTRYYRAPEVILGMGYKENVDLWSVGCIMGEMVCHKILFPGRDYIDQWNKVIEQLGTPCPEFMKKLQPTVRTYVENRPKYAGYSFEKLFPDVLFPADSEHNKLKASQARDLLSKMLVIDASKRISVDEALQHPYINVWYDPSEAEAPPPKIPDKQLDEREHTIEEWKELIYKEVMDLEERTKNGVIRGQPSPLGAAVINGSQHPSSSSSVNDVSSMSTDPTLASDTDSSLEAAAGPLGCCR"}
{"Compound": "CCC(=O)Nc1ccc2ncnc(Nc3cccc(Br)c3)c2c1", "remaining activity": "73.7%"}
{"Compound": "COc1cc2ncnc(N3CCN(C(=O)Nc4ccc(Oc5ccccc5)cc4)CC3)c2cc1OC", "remaining activity": "90.5%"}
{"Compound": "Cn1cnc2cc3c(Nc4cccc(Br)c4)ncnc3cc21", "remaining activity": "96.9%"}
{"Compound": "Cn1cc(/C=C2\\C(=O)Nc3ccc(S(N)(=O)=O)cc32)c2ccccc21", "remaining activity": "108%"}
{"Compound": "CN(C)CCCn1cc(C2=C(c3c[nH]c4ccccc34)C(=O)NC2=O)c2ccccc21", "remaining activity": "90.2%"}
{"Compound": "Nc1[nH]nc2nnc(-c3c(-c4ccccc4)nn4ccccc34)cc12", "remaining activity": "98%"}
{"Compound": "O=C(Nc1ccc(Cl)cc1)c1ccccc1NCc1ccncc1", "remaining activity": "109%"}
{"Compound": "COc1cc2ncc(-c3ccccc3)nc2cc1OC", "remaining activity": "102%"}
{"Compound": "CC(C)[C@H](CO)Nc1nc(Nc2cccc(Cl)c2)c2ncn(C(C)C)c2n1", "remaining activity": "99%"}
{"Compound": "O=c1cc(N2CCOCC2)oc2c1ccc1ccccc12", "remaining activity": "97.2%"}
{"Compound": "CCN1/C(=C/C(C)=O)Sc2ccc(OC)cc21", "remaining activity": "102%"}
{"Compound": "C[S+]([O-])c1ccc(-c2nc(-c3ccncc3)c(-c3ccc(F)cc3)[nH]2)cc1 (stereo not shown)", "remaining activity": "96.1%"}
{"Compound": "COc1ccc(Cl)cc1NC(=O)Nc1cc(C)nc2ccccc12", "remaining activity": "104%"}
{"Compound": "CCOc1cc2ncnc(Nc3cccc(Br)c3)c2cc1OCC", "remaining activity": "90.7%"}
{"Compound": "CC(C)c1nn(-c2c(Cl)cccc2Cl)c2nc(Cc3ccc(OCCO)cc3)[nH]c(=O)c12", "remaining activity": "95.4%"}
{"Compound": "Cc1ccc(NC(=O)c2ccc(CN3CCN(C)CC3)cc2)cc1Nc1nccc(-c2cccnc2)n1", "remaining activity": "93.9%"}
{"Compound": "COc1ccc(-c2cnc3c(-c4ccsc4)cnn3c2)cc1", "remaining activity": "100%"}
{"Compound": "COc1cc2ncnc(Nc3ccc(OCc4ccccc4)cc3)c2cc1OC", "remaining activity": "102%"}
{"Compound": "O=C1NC(=O)/C(=C/c2ccc3nccnc3c2)S1", "remaining activity": "91.5%"}
{"Compound": "CS(=O)(=O)CCNCc1ccc(-c2ccc3ncnc(Nc4ccc(OCc5cccc(F)c5)c(Cl)c4)c3c2)o1", "remaining activity": "91.9%"}
{"Compound": "CC(=O)O/N=C1/C(c2c(O)[nH]c3cc(Br)ccc23)=Nc2ccccc21", "remaining activity": "88.9%"}
{"Compound": "Cc1nc(Nc2ncc(C(=O)Nc3c(C)cccc3Cl)s2)cc(N2CCN(CCO)CC2)n1", "remaining activity": "106%"}
{"note": "Excerpt of the above (set 3):"}
{"Structure (SMILES)": "CC1(C)S[C@@H]2[C@H](NC(=O)[C@H](NC(=O)N3CCNC3=O)c3ccccc3)C(=O)N2[C@H]1C(=O)O", "nuclear SOX9 intensity": "93.4 % of DMSO"}
{"Structure (SMILES)": "O=C(NO)c1cccc(C(=O)NCCc2ccccc2)c1", "nuclear SOX9 intensity": "93.7 % of DMSO"}
{"Structure (SMILES)": "N#CC(CCCN1CCN(/N=C/c2cccnc2)CC1)(c1ccccc1)c1ccccc1", "nuclear SOX9 intensity": "98.4 % of DMSO"}
{"Structure (SMILES)": "Clc1cc2cc(c1)-c1cnn3ccc(nc13)NCCOCCO2", "nuclear SOX9 intensity": "90.6 % of DMSO"}
{"Structure (SMILES)": "O=C(Nc1ccc(CN2CCOCC2)cc1)c1ccc(-c2cccc(Cl)c2)o1", "nuclear SOX9 intensity": "191 % of DMSO"}
{"Structure (SMILES)": "CN(C)c1cccc(Oc2cnc(Nc3cccc(O)c3)nc2)c1", "nuclear SOX9 intensity": "124 % of DMSO"}
{"Structure (SMILES)": "COC(=O)C(N)Cc1ccc(Cl)cc1 (stereo not shown)", "nuclear SOX9 intensity": "93.5 % of DMSO"}
{"Structure (SMILES)": "Nc1nc(N)c2nc(-c3ccccc3)c(N)nc2n1", "nuclear SOX9 intensity": "129 % of DMSO"}
